{"data": "Measured values collected from several papers", "note": "± gives the spread as reported."}
{"SMILES": "CCCCCCCCCCCCCCCC(=O)N[C@@H](CCC(=O)NCCOCCOCCC(=O)NCCOCCOCCC(=O)NCCCC[C@H](NC(=O)[C@H](CC(=O)O)NC(=O)[C@H](CC(C)C)NC(=O)[C@H](Cc1ccc(O)cc1)NC(=O)[C@H](CCCCN)NC(=O)[C@H](CO)NC(=O)[C@H](Cc1ccc(O)cc1)NC(=O)[C@H](CC(=O)O)NC(=O)[C@H](CO)NC(=O)[C@@H](NC(=O)[C@H](Cc1ccccc1)NC(=O)[C@@H](NC(=O)CNC(=O)[C@H](CCC(N)=O)NC(=O)[C@@H](CO)NC(=O)[C@@H](N)Cc1c[nH]cn1)[C@@H](C)O)[C@@H](C)O)C(=O)N[C@@H](CCCNC(=N)N)C(=O)N[C@@H](CCCNC(=N)N)C(=O)N[C@@H](C)C(=O)N[C@@H](CCC(N)=O)C(=O)N[C@@H](CC(=O)O)C(=O)N[C@@H](Cc1ccccc1)C(=O)N[C@H](C(=O)N[C@@H](CCC(N)=O)C(=O)N[C@@H](Cc1c[nH]c2ccccc12)C(=O)N[C@@H](CC(C)C)C(=O)N[C@@H](CC(C)C)C(=O)N[C@@H](CC(N)=O)C(=O)N[C@H](C(=O)NCC(=O)NCC(=O)N1CCC[C@H]1C(=O)N[C@@H](CO)C(=O)N[C@@H](CO)C(=O)NCC(=O)N[C@@H](C)C(=O)N1CCC[C@H]1C(=O)N1CCC[C@H]1C(=O)N1CCC[C@H]1C(=O)N[C@@H](CO)C(N)=O)[C@@H](C)O)C(C)C)C(=O)O", "assay": "qPCR, item: Fn, Pdgf, Timp1, Tnfα, F4/80", "system": "Sprague-Dawley rat ANIT model, liver", "conditions": "dose not given", "endpoint": "mRNA level", "value": "decreased"}
{"SMILES": "Cc1cc(/C=C/C#N)cc(C)c1Nc1nc(Nc2ccc(C#N)cc2)ncc1N", "target or system": "HIV-1", "assay": "viral replication, single-round infection", "system": "RT mutant K103N/Y181C", "endpoint": "EC50", "value": "1.8 ± 0.1 nM"}
{"SMILES": "CC[C@H](C)[C@H](NC(=O)[C@H](CCCCN)NC(=O)[C@H](Cc1c[nH]c2ccccc12)NC(=O)[C@H](CC(C)C)NC(=O)[C@H](CC(C)C)NC(=O)[C@H](CC(=O)O)NC(=O)[C@@H](NC(=O)[C@H](CCCNC(=N)N)NC(=O)[C@H](CCC(=O)O)NC(=O)[C@H](CCCNC(=N)N)NC(=O)[C@H](CC(=O)O)NC(=O)[C@H](CC(C)C)NC(C)=O)[C@@H](C)CC)C(=O)N[C@@H](C)C(=O)N[C@@H](CCCNC(=N)N)C(=O)N[C@@H](C)C(=O)NCC(=O)N[C@@H](C)C(=O)N[C@@H](CCCNC(=N)N)C(=O)N[C@@H](CO)C(=O)N[C@@H](C)C(=O)N[C@H](C(=O)NCC(N)=O)C(C)C", "assay": "tryptophan fluorescence", "system": "POPC/POPG/chol 7:2:1 SUV", "conditions": "pH 7.5, 25 °C", "endpoint": "membrane partition coefficient", "value": "26000 ± 10000"}
{"SMILES": "CC[C@H](C)[C@H](NC(=O)[C@H](CCCCN)NC(=O)[C@H](CCCCN)NC(=O)[C@H](CC(C)C)NC(=O)[C@H](Cc1c[nH]c2ccccc12)NC(=O)CN)C(=O)NCC(=O)N[C@@H](CCCCN)C(=O)N[C@@H](CCCCN)C(=O)N[C@H](C(=O)N[C@@H](CCC(=O)O)C(=O)N[C@@H](CCCNC(=N)N)C(=O)N[C@H](C(=O)NCC(=O)N[C@@H](CCC(N)=O)C(=O)N[C@@H](Cc1c[nH]cn1)C(=O)N[C@H](C(=O)N[C@@H](CCCNC(=N)N)C(=O)N[C@@H](CC(=O)O)C(=O)N[C@@H](C)C(=O)N[C@H](C(=O)N[C@H](C(=O)N[C@@H](CCC(N)=O)C(=O)N[C@H](C(=O)N[C@H](C(=O)NCC(=O)N[C@H](C(=O)N[C@@H](C)C(=O)N[C@@H](CCC(N)=O)C(=O)N[C@@H](CCC(N)=O)C(=O)N[C@@H](C)C(=O)N[C@@H](C)C(=O)N[C@@H](CC(N)=O)C(=O)N[C@H](C(=O)N[C@@H](C)C(=O)N[C@@H](C)C(=O)N[C@H](C(=O)N[C@@H](CC(C)C)C(=O)N[C@@H](CCCCN)C(N)=O)[C@@H](C)O)C(C)C)C(C)C)[C@@H](C)CC)[C@@H](C)O)[C@@H](C)CC)[C@@H](C)O)[C@@H](C)O)C(C)C)[C@@H](C)CC", "target or system": "Klebsiella pneumoniae", "system": "isolate RKI 19/16, CAMHB", "endpoint": "MIC", "value": "16 mg/L"}
{"SMILES": "CC(C)n1ccn2cc(C(=O)NCc3ccc(F)cc3F)c(=O)c(O)c2c1=O", "target or system": "human immunodeficiency virus 1", "assay": "single-round vector infection", "system": "integrase R263K", "endpoint": "EC50", "value": "3.7 ± 0.2 nM"}
{"SMILES": "CC[C@H](C)[C@@H]1NC(=O)[C@H](CCCNC(=N)N)NC(=O)[C@H](CO)NC(=O)[C@H](CCC(=O)O)NC(=O)[C@H](CC(=O)O)NC(=O)CNC(=O)CNC(=O)[C@H]([C@@H](C)O)NC(=O)[C@H](Cc2ccccc2)NC(=O)[C@H](CO)NC(=O)[C@H]([C@@H](C)O)NC(=O)[C@H](C)NC(=O)[C@@H]2CSSC[C@@H](C(=O)N[C@@H](Cc3ccc(O)cc3)C(=O)N[C@@H](Cc3ccccc3)C(=O)N[C@H](C(=O)N[C@H](C(=O)NCC(=O)O)[C@@H](C)O)[C@@H](C)O)NC(=O)[C@H]([C@@H](C)O)NC(=O)[C@H](CSSC[C@H](NC(=O)[C@H](CCC(=O)O)NC(=O)[C@H](CO)NC(=O)[C@H](CCCCN)NC(=O)[C@H](Cc3ccc(O)cc3)NC(=O)[C@@H]3CCCN3C(=O)[C@H](Cc3ccccc3)NC(=O)[C@H](CCCCN)NC(=O)[C@H](CCCNC(=N)N)NC(=O)[C@H](CCCCN)NC(=O)[C@H](CCCCN)NC(=O)[C@H](Cc3ccc(O)cc3)NC(=O)[C@@H]3CCCN3C(=O)[C@@H](NC(=O)[C@H](CC(=O)O)NC(=O)[C@H](CCCCN)NC(=O)[C@H](CCCCN)NC(=O)[C@@H](NC(=O)[C@@H](NC(=O)[C@@H](N)CCC(=O)O)C(C)C)[C@@H](C)CC)[C@@H](C)O)C(=O)N[C@@H](CC(C)C)C(=O)N[C@@H](CCCCN)C(=O)N[C@@H](C)C(=O)N2)NC(=O)[C@H](CCCCN)NC(=O)[C@H](Cc2ccccc2)NC(=O)[C@H](Cc2ccccc2)NC(=O)CNC(=O)[C@@H]2CCCN2C(=O)[C@H](CCCCN)NC(=O)CNC(=O)[C@H](CCC(=O)O)NC(=O)[C@H](CCC(N)=O)NC1=O", "system": "mouse, hippocampus", "conditions": "intrahippocampal, 1 µL of 10 µM, 30 min", "endpoint": "increase in acetylcholine level", "value": "~63.6%"}
{"SMILES": "CC[C@H](C)[C@H](NC(=O)[C@H](C)NC(=O)[C@@H](NC(=O)[C@@H](NC(=O)[C@H](CC(C)C)NC(=O)[C@H](CCCCN)NC(=O)[C@@H](N)CCCCN)[C@@H](C)CC)[C@@H](C)O)C(=O)N[C@@H](CC(C)C)C(=O)N[C@@H](CCCCN)C(=O)N[C@@H](CCCCN)C(=O)N[C@H](C(=O)N[C@@H](CCCNC(=N)N)C(=O)N[C@@H](CCC(=O)O)C(=O)N[C@@H](CCCCN)C(=O)N[C@@H](CCCCN)C(=O)N[C@@H](CCCCN)C(=O)N[C@@H](CCC(=O)O)C(=O)N[C@@H](CS)C(=O)N[C@@H](CC(C)C)C(=O)N[C@H](C(=O)O)C(C)C)[C@@H](C)O", "target or system": "TTX-sensitive sodium channel (mouse)", "assay": "resurgent sodium current, open-channel blocker, whole-cell patch clamp", "system": "mouse hippocampal CA3 neurons", "conditions": "200 µM intracellular, 22 °C, step to +30 mV, 10 ms, together with: repolarisation to -30 mV", "endpoint": "decay time constant", "value": "5.4 ± 0.4 ms"}
{"SMILES": "Nc1ncnc2c1ncn2C1CCC(OC(C(=O)O)P(=O)(O)O)C1 (racemic)", "target or system": "HIV-1 reverse transcriptase E138K", "assay": "enzyme activity, inhibitor", "conditions": "together with: poly(rU)·oligo(dA), [3H]dATP", "how to read": "relative to: mutant over wild type", "endpoint": "fold resistance", "value": "0.7 fold"}
{"SMILES": "COCCN1CCn2cc(C(=O)NCc3ccc(F)cc3F)c(=O)c(O)c2C1=O", "target or system": "human immunodeficiency virus 1", "assay": "single-round vector infection", "system": "integrase S230N", "endpoint": "EC50", "value": "7.8 ± 0.5 nM"}
{"SMILES": "Nc1c(C(=O)NCc2ccc(F)cc2F)c(=O)n(O)c2ncccc12", "target or system": "HIV-1 vector with IN E92Q", "assay": "single-round infectivity", "endpoint": "EC50", "value": "3 ± 1.8 nM"}
{"SMILES": "CC[C@H](C)[C@H](NC(=O)[C@H](CCCN)NC(=O)[C@H](CC(=O)O)NC(=O)[C@H](CC(C)C)NC(=O)C(C)(CC(C)C)NC(=O)[C@@H](NC(=O)[C@H](CO)NC(=O)[C@H](Cc1ccc(O)cc1)NC(=O)[C@H](CC(=O)O)NC(=O)[C@H](CO)NC(=O)[C@@H](NC(=O)[C@H](Cc1ccccc1)NC(=O)[C@@H](NC(=O)CNC(=O)[C@H](CCC(=O)O)NC(=O)C(C)(C)NC(=O)[C@@H](N)Cc1ccc(O)cc1)[C@@H](C)O)[C@@H](C)CC)[C@@H](C)CC)C(=O)N[C@@H](Cc1c[nH]cn1)C(=O)N[C@@H](CCC(N)=O)C(=O)NC(C)(C)C(=O)N[C@@H](CC(=O)O)C(=O)N[C@@H](Cc1ccccc1)C(=O)N[C@H](C(=O)N[C@@H](CCC(=O)O)C(=O)N[C@@H](Cc1ccc(O)cc1)C(=O)N[C@@H](CCCCNC(=O)COCCOCCNC(=O)COCCOCCNC(=O)CC[C@H](NC(=O)CCCCCCCCCCCCCCCCCCC(=O)O)C(=O)O)C(=O)N[C@@H](CC(C)C)C(=O)N[C@@H](CCC(=O)O)C(=O)NCC(=O)NCC(=O)N1CCC[C@H]1C(=O)N[C@@H](CO)C(=O)N[C@@H](CO)C(=O)NCC(=O)N[C@@H](C)C(=O)N1CCC[C@H]1C(=O)N1CCC[C@H]1C(=O)N1CCC[C@H]1C(=O)N[C@@H](CO)C(N)=O)C(C)C (some centres unmarked)", "system": "human, type 2 diabetes", "conditions": "12 mg weekly, day 29, 4 weeks dosing", "how to read": "relative to: placebo", "endpoint": "fasting glucose change", "value": "-1.13 mmol/L"}
{"SMILES": "CC(C)N1CCn2cc(C(=O)NCc3ccc(F)cc3F)c(=O)c(O)c2C1=O", "target or system": "HIV-1", "assay": "viral replication, single-round vector infection", "system": "IN G140S/Q148R", "endpoint": "EC50", "value": "11.3 ± 0.7 nM"}
{"SMILES": "O=C(NC1CCN(c2ncnc3[nH]cnc23)CC1)c1cccc(NS(=O)(=O)c2ccc(C(F)(F)F)cc2)c1", "target or system": "monkeypox virus E1/E12", "conditions": "12.5 µM", "endpoint": "inhibition", "value": "9.01%"}
{"SMILES": "O=C(NCc1ccc(F)cc1F)c1cn2c(c(O)c1=O)C(=O)N(CCCCCCO)CC2", "target or system": "human immunodeficiency virus 1", "assay": "single-round vector infection", "system": "integrase R263K", "endpoint": "EC50", "value": "32.2 ± 2.5 nM"}
{"SMILES": "CC[C@H](C)[C@@H]1NC(=O)[C@H](CC(=O)O)NC(=O)[C@H]([C@@H](C)O)NC(=O)[C@@H]2CSSC[C@@H]3NC(=O)[C@H](CC(C)C)NC(=O)[C@H](CC(N)=O)NC(=O)[C@H](CC(C)C)NC(=O)[C@H](CCCNC(=N)N)NC(=O)[C@H](Cc4ccc(O)cc4)NC(=O)[C@H](CC(N)=O)NC(=O)[C@H](CCSC)NC(=O)[C@H](CO)NC(=O)[C@H]([C@@H](C)O)NC(=O)[C@H](CCCNC(=N)N)NC(=O)[C@H](CSSC[C@H](NC(=O)[C@H]([C@@H](C)O)NC(=O)[C@H](CCCCN)NC(=O)[C@H](CCCNC(=N)N)NC3=O)C(=O)NCC(=O)N[C@@H](CO)C(=O)N[C@H](C(=O)O)CSSC[C@H](NC(=O)[C@@H](NC(=O)[C@@H](N)CCCNC(=N)N)[C@@H](C)O)C(=O)N[C@@H](CCCCN)C(=O)N[C@@H](CC(=O)O)C(=O)N[C@@H](CC(C)C)C(=O)N[C@@H]([C@@H](C)CC)C(=O)N3CCC[C@H]3C(=O)N[C@@H](C(C)C)C(=O)N[C@@H](CO)C(=O)N[C@@H](CCC(=O)O)C(=O)N2)NC(=O)[C@H](CCCNC(=N)N)NC1=O", "target or system": "KcsA-Shaker channel", "assay": "two-electrode voltage clamp", "system": "Xenopus oocytes", "conditions": "0 mV", "endpoint": "koff", "value": "0.1 ± 0.02 s⁻¹"}
{"SMILES": "COCCCCCCN1CCn2cc(C(=O)NCc3ccc(F)cc3F)c(=O)c(O)c2C1=O", "target or system": "human immunodeficiency virus 1", "assay": "single-round vector infection", "system": "integrase G140S/Q148H", "endpoint": "EC50", "value": "123 ± 5.4 nM"}
{"SMILES": "Cc1cc(/C=C/C#N)cc(C)c1-n1cnc2cnc(Nc3ccc(C#N)cc3)nc21", "target or system": "HIV-1", "assay": "viral replication, single-round infection", "system": "RT mutant L100I", "endpoint": "EC50", "value": "0.6 ± 0.02 nM"}
